# Assay results gathered from unrelated publications.
# Protocols differ between the studies behind these lines. Values joined by “and” are separate records of one study, mostly repeats; a detail may differ. ± marks the error that the study gave.
# Protein S100-B: Protein S100-B (Homo sapiens, UniProt P04271)
# Nr3c1: Glucocorticoid receptor (Nr3c1, Rattus norvegicus, UniProt P06536)
# Protein farnesyltransferase: Protein farnesyltransferase (Rattus norvegicus, UniProt Q02293+Q04631)
# CASP4: Caspase-4 (CASP4, Homo sapiens, UniProt P49662)
# APP: Amyloid-beta precursor protein (APP, Homo sapiens, UniProt P05067)
# Fibroblast growth factor 2 with pentraxin 3: Fibroblast growth factor 2, with pentraxin 3 (Homo sapiens, UniProt P09038)
# T1: FMN riboswitch G8A/G9A/G74A/G96A (Lactobacillus plantarum); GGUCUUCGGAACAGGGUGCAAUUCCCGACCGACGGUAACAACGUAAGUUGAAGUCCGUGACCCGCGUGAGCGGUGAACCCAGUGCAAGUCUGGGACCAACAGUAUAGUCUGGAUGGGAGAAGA
Substance,target,assay,test system,setting,scale,endpoint,result
DDESIYINIPDGE,"Tyrosine-protein kinase CSK (CSK, Homo sapiens, UniProt P41240)",substrate,peptide,concentration not given,baseline: Glu or Asp Y-1 parent peptide,kcat/Km fold change,1.4 fold
COc1ccc(-n2nc(C(N)=O)c3c2C(=O)N(c2ccc(N4CCCCC4=O)cc2)CC3)cc1,"Coagulation factor X (F10, Bos taurus, UniProt P00743)",anti-factor Xa activity,"human, plasma",,,PK-PD slope,0.0159 IU/ng
O=C(N1CCCC[C@@H]1Cc1ccccc1)n1cc(C(O)(c2ccc(F)cc2)c2ccc(F)cc2)nn1,"Diacylglycerol lipase-alpha (Mus musculus, UniProt Q6WQJ1)","enzyme activity, inhibitor",,,,kinact,0.00533 s⁻¹
O=C(/C=C\n1cnc(-c2cc(C(F)(F)F)cc(C(F)(F)F)c2)n1)NNc1cnccn1,"Exportin-1 (CRM1, Saccharomyces cerevisiae, UniProt P30822, del377-413/T539C)","NES binding, pull-down",,"90 min, 4 °C, together with: 2 µM protein, 10 µM RanGTP",,concentration for complete inhibition,5 µM
"Ac-YESTNPFTAK-NH2 (N-acetyl, C-amide)","EHD1 EH domain, mouse",ITC,peptide,"pH 7.0, 20 °C, 0 mM KCl, first titration",,ΔH,-11.8 kcal/mol
O=C(O)CC[C@H](NC(=O)N[C@@H](CCCCNC(=O)[C@H](Cc1ccc2ccccc2c1)NC(=O)[C@H]1CC[C@H](CNC(=O)CN2CCN(CC(=O)O)CCN(CC(=O)O)CCN(CC(=O)O)CC2)CC1)C(=O)O)C(=O)O,"Glutamate carboxypeptidase 2 (FOLH1, Homo sapiens, UniProt Q04609)",,LNCaP,"30 nM, 45 min, 37 °C, 177Lu-labelled",baseline: total cell-bound,internalized fraction,15.5 ± 7.5%
CC(C)[C@H](NC(=O)[C@H](CCCNC(=N)N)NC(=O)[C@@H](NC(=O)[C@H](CCC(N)=O)NC(=O)[C@@H](CCC(N)=O)NC(=O)[C@@H](NC(=O)[C@H](Cc1c[nH]c2ccccc12)NC(=O)[C@@H]1CCCN1C(=O)[C@@H]1CCCN1C(=O)[C@H](Cc1ccccc1)NC(=O)[C@H](CO)NC(=O)CNC(=O)[C@H](CCCNC(=N)N)NC(=O)[C@H](CCCNC(=N)N)NC(=O)[C@H](CCCNC(=N)N)NC(=O)[C@H](CCCNC(=N)N)NC(=O)[C@H](CCCNC(=N)N)NC(=O)[C@@H](N)CCCNC(=N)N)C(C)C)[C@@H](C)O)C(=O)O,"Disks large homolog 4, PDZ3 domain (Homo sapiens, UniProt P78352)","binding, surface plasmon resonance",,"pH 7.5, 25 °C",,kon,317000 M⁻¹ s⁻¹
CC[C@H](C)[C@H](N)C(=O)N[C@@H](CCC(=O)O)C(=O)N[C@@H](CC(C)C)C(=O)N[C@@H](CC(C)C)C(=O)N[C@@H](CCC(N)=O)C(=O)N[C@@H](C)C(=O)N[C@@H](CCCNC(=N)N)C(=O)N[C@@H](CCCCNC(=O)COCCOCCOCCOCCN=[N+]=[N-])C(N)=O,"E-selectin (SELE, Homo sapiens, UniProt P16581)","binding, surface plasmon resonance",,,,dissociation rate constant,0.00231 ± 0.000491 s⁻¹
O=CCO,aldehyde oxidase F13 (Pseudomonas sp. MX-058),"substrate, peroxidase-coupled H2O2",,"pH 7.0, 30 °C, together with: O2 co-substrate",,Km,20 mM
C=CC(=O)Nc1cccc(Nc2nc(Nc3ccc(OCCOC)c(F)c3)ncc2F)c1,"Tyrosine-protein kinase BTK (Btk, Mus musculus, UniProt P35991)",,"wild-type mice, spleen","drinking water, dose not given, 40 to 90 h",baseline: water control,target occupancy,~80%
Cc1cc2nc[nH]c2cc1C,"cobT (Desulfitobacterium hafniense, UniProt Q24VN9)","alpha-ribazole phosphate formation, substrate",,"250 µM, 30 min, pH 7.5, 30 °C, together with: 2 mM NaMN",,product formed,167 ± 2.7 µM
CC[C@H](C)[C@H](NC(=O)[C@H](CCCCN)NC(=O)[C@H](CC(C)C)NC(=O)[C@H](CC(C)C)NC(=O)[C@@H]1CCCN1C(=O)[C@H](CC(C)C)NC(=O)[C@H](CCCCN)NC(=O)[C@@H]1CCCN1C(=O)[C@H](CCCNC(=N)N)NC(=O)[C@@H](NC(=O)[C@H](CCC(N)=O)NC(=O)[C@H](CC(N)=O)NC(C)=O)C(C)C)C(=O)N[C@@H](CC(C)C)C(=O)N[C@@H](Cc1c[nH]cn1)C(=O)N[C@@H](C)C(=O)N[C@@H](C)C(=O)NCC(=O)N[C@@H](C)C(=O)N[C@@H](CCC(N)=O)C(=O)N[C@@H](Cc1ccc(O)cc1)C(N)=O,Protein S100-B,"binding, NMR line shape, NMR only",,"35 °C, low salt",,koff,10 ± 2 s⁻¹
CC(=O)N[C@@H](C)C(=O)NCC(=O)N[C@@H](CO)C(=O)N[C@H]1CSSC[C@@H](C(=O)N[C@@H](Cc2ccc(O)cc2)C(=O)N[C@@H](CCC(=O)O)C(=O)N[C@H](C(=O)N[C@@H](CCC(=O)O)C(=O)NCC(=O)N[C@H](C(=O)NCC(=O)NCC(=O)NCC(=O)N[C@@H](CCCCNC(=O)CCCC(=O)NCCC(CCNC(C)(C)C(C)=NO)CCNC(C)(C)C(C)=NO)C(N)=O)[C@@H](C)O)[C@@H](C)O)NC(=O)[C@H](Cc2c[nH]c3ccccc23)NC(=O)[C@@H]2CSSC[C@H](NC(=O)[C@H](Cc3ccc(O)cc3)NC1=O)C(=O)N[C@@H](CO)C(=O)NCC(=O)N1CCC[C@H]1C(=O)N1CCC[C@H]1C(=O)N[C@@H](CCCNC(=N)N)C(=O)N[C@@H](Cc1ccccc1)C(=O)N[C@@H](CCC(=O)O)C(=O)N2 (some centres unmarked) [technetium-99m labelled],"Hepatocyte growth factor receptor (MET, Homo sapiens, UniProt P08581)",saturation binding,MKN-45,,,Bmax,772000 ± 159000 receptors per cell
CSc1nc2c([nH]1)c(=O)n(C)c(=O)n2C,Nr3c1,"reporter gene, antagonist, MMTV-luciferase",T47D/A1-2,"10 µM, 24 h, together with: 5 nM dexamethasone",baseline: maximal activity,remaining activity,90%
CTVF,Protein farnesyltransferase,"substrate, stopped-flow fluorescence",peptide,"pH 7.8, 25 °C, single turnover",,farnesylation rate constant,0.4 ± 0.04 s⁻¹
O=c1cc(-c2ccc(O)c(O)c2)oc2cc(O)cc(O)c12,CASP4,,,"33 µM, together with: LEHD substrate",baseline: solvent control,remaining activity,9.74%
Cc1cc2nc3[nH]c(=O)[nH]c(=O)c3nc2cc1C,"T1, FMN riboswitch G8A/G9A/G74A/G96A (Lactobacillus plantarum)",ITC,,"pH 7.5, 25 °C, NaCl 100 mM",,Kd,0.035 µM
Clc1ccc2c(c1)CCc1cccnc1C2=C1CCN(CC2CCC2)CC1,"Histamine H1 receptor (HRH1, Homo sapiens, UniProt P35367)","histamine-induced calcium response, antagonist",,"concentration not given, after washout of unbound compound, together with: histamine",,duration of complete antagonism,≥ 2 h
O=S(=O)(Nc1ccccc1Cl)C1CC2OC1C(c1ccc(O)cc1)=C2c1ccc(O)cc1 (centres unmarked),"Estrogen receptor (ESR1, Homo sapiens, UniProt P03372)","reporter gene, antagonist",HepG2,together with: estradiol 10 nM,"baseline: E2 response, negative is inverse agonism",efficacy,89 ± 4%
COC(=O)CCC(C(=O)C=Cc1ccc(O)c(OC(F)(F)F)c1)C(=O)C=Cc1ccc(O)c(OC(F)(F)F)c1 (centres unmarked),APP,"Aβ aggregation, SDS-PAGE western blot, refers to: Aβ1-42 75-200 kDa band",,"30 µM, 24 h, 37 °C, together with: Aβ1-42 10 µM",baseline: DMSO,band density,981 ± 209%
O=C(O)c1ccccc1Nc1cccc(C(F)(F)F)c1,CASP4,,,"33 µM, together with: LEHD substrate",baseline: solvent control,remaining activity,23.4%
O=S(=O)(O)c1nc2ccccc2[nH]1,"racE (Bacillus subtilis, UniProt P94556)","enzyme activity, inhibitor",,,,binding free energy,-6.88 kcal/mol
"Ac-PARAC-NH2 (N-acetyl, C-amide)",Fibroblast growth factor 2 with pentraxin 3,"binding to PTX3, competitor, surface plasmon resonance",peptide,together with: 150 nM free FGF2,,ID50,1000 µM
Cc1ccccc1-c1ccc(C(=O)N2CC3(C)CC2CC(C)(C)C3)cc1 (centres unmarked),"Vasopressin V1a receptor (Mus musculus, UniProt Q62463)",blocker,"CD-1 mouse, rest of brain","subcutaneous, 3 mg/kg, 60 min",,radiotracer uptake reduction,14%
CNLM,Protein farnesyltransferase,"substrate, stopped-flow fluorescence",peptide,"pH 7.8, 25 °C, single turnover",,farnesylation rate constant,3.1 ± 0.3 s⁻¹
CC[S+]([O-])c1nc(-c2cccc(OCc3ccccc3)c2)cc(C(F)(F)F)n1 (centres unmarked),"Glucagon-like peptide 1 receptor (GLP1R, Homo sapiens, UniProt P43220)","cAMP accumulation, agonist",HEK293T overexpressing GLP1R,,,Emax,76 to 91%
COC(=O)COc1ccc(C=CC(=O)CC(=O)C=Cc2ccc(O)c(OC)c2)cc1OC,APP,"Aβ aggregation, SDS-PAGE western blot, refers to: Aβ1-42 75-200 kDa band",,"30 µM, 24 h, 37 °C, together with: Aβ1-42 10 µM",baseline: DMSO,band density,294 ± 25%
CCCCC/C=C\S/C=C\CCCCCCCC(=O)O,"Seed linoleate 13S-lipoxygenase-1 (Glycine max, UniProt P08170)",inhibitor,,"pH 10.0, noncompetitive inhibition, together with: linoleic acid",,Kis,36 µM
Nc1ncnc2c1ncn2[C@@H]1O[C@H](COP(=O)(O)O)[C@@H](O)[C@H]1O.O,CASP4,enzyme activity,,"33 µM, together with: LEHD substrate",baseline: solvent control,remaining activity,20.9%
ASAQDGRCPCGARRPDSR (LAGE-1 (69-86); sequence looked up),HLA-DPB1*0401,"peptide binding, biotinylated peptide competition",peptide,,"baseline: peptide over reference peptide, lower = stronger binding",relative IC50,> 7300
"Ac-GRPCG-NH2 (N-acetyl, C-amide)",Fibroblast growth factor 2 with pentraxin 3,"binding to PTX3, competitor, surface plasmon resonance",peptide,together with: 150 nM free FGF2,,ID50,> 3000 µM
"Ac-GPSLNPFDEED-NH2 (N-acetyl, C-amide)","EHD1 EH domain, mouse",ITC,peptide,"pH 7.0, 20 °C, 0 mM KCl, first titration",,TΔS,-3.34 kcal/mol
E. coli DnaG primase,single-stranded DNA-binding protein (Escherichia coli),analytical ultracentrifugation,,"7-fold molar excess, pH 7.4, 20 °C",,sedimentation coefficient,5.1 S
Nc1nc2c(ncn2[C@@H]2O[C@@H]3COP(=O)(O)O[C@H]3[C@H]2O)c(=O)[nH]1,"Cyclic nucleotide-gated channel alpha-2 (Cnga2, Rattus norvegicus, UniProt Q00195)","ion current, agonist, inside-out patch clamp",,"WT channel, -50 mV",baseline: cAMP at saturation,relative maximal current,1
CSCC[C@H](NC(=O)[C@H](CC(C)C)NC(=O)[C@H](CCCCN)NC(=O)[C@H](CCCCN)NC(=O)[C@H](Cc1c[nH]cn1)NC(=O)[C@H](CCCNC(=N)N)NC(=O)[C@H](CO)NC(=O)[C@@H](NC(=O)[C@H](CO)NC(=O)[C@H](CCC(N)=O)NC(=O)CNC(=O)[C@H](CCCCN)NC(=O)[C@H](CCCCN)NC(=O)[C@H](CO)NC(=O)[C@H](CCCCN)NC(=O)[C@H](CC(C)C)NC(=O)[C@H](Cc1c[nH]cn1)NC(=O)[C@H](CO)NC(=O)[C@H](Cc1ccc(O)cc1)NC(C)=O)[C@@H](C)O)C(=O)N[C@@H](Cc1ccccc1)C(=O)N[C@@H](CCCCN)C(=O)N[C@H](C(=O)N[C@@H](CCC(=O)O)C(N)=O)[C@@H](C)O,Protein S100-B,"binding, NMR line shape, fixed Kd",,"35 °C, low salt",,koff,800 ± 160 s⁻¹
Cn1c(=O)c2[nH]c(SCc3ccccc3)nc2n(C)c1=O,Nr3c1,"reporter gene, antagonist, MMTV-luciferase",T47D/A1-2,"10 µM, 24 h, together with: 5 nM dexamethasone",baseline: maximal activity,remaining activity,127%
CN(Cc1cnc2nc(N)nc(N)c2n1)c1ccc(C(=O)N[C@@H](CCC(=O)O)C(=O)O)cc1,"Reduced folate transporter (SLC19A1, Homo sapiens, UniProt P41440, S313A)","transport, substrate",K562 transfected (K500E),"180 s, 37 °C",,Vmax,0.5 ± 0.04 pmol/mg protein/min
O=S(=O)(O)c1cc(N=C=S)ccc1CCc1ccc(N=C=S)cc1S(=O)(=O)O,"SLC4A1 (Homo sapiens, UniProt P02730)",chloride exchange,human red blood cells,"pH 7.2, 0 °C, no chloride gradient",,ID50,0.19 µM and 0.26 µM and 0.21 µM and 0.13 µM
